Assay results pooled from the literature.
Lines come from different studies, so protocols differ. Numbers after ± are the reported error.

| Substance | cell line | test | system | setting | scale | quantity | result |
| --- | --- | --- | --- | --- | --- | --- | --- |
| CN(C)c1cc2c(Nc3ccc4c(cnn4Cc4ccccc4)c3)ncnc2cn1 | A549 EGFR reporter cells | EGFR-induced granule formation |  | 10 µM, added: 500 nM EGF | negative means activation | inhibition | 89% |
| CC(C)C[C@H](NC(=O)[C@@H](NC(=O)[C@@H](N)C(C)C)C(C)C)C(=O)N[C@@H](C)C(N)=O | PC-12 | Aβ42-induced neurotoxicity, inhibitor, MTT |  | concentration not given, 6 h, 37 °C, peptide to Aβ42 1:2, added: Aβ42 2 µM | reference: untreated cells | viability | 100% |
| ClC1=C(Cl)C2(Cl)C3C(Cl)C=CC3C1(Cl)C2(Cl)Cl (stereo not drawn) | human iPSC-derived cardiomyocytes | beat peak frequency |  | 30 min |  | lowest effective concentration | 10 µM |
| CC[C@H](C)[C@H](NC(=O)[C@@H](NC(=O)[C@H](N)Cc1ccccc1)C(C)C)C(=O)N[C@@H](C)C(N)=O | PC-12 | Aβ42-induced neurotoxicity, inhibitor, MTT |  | concentration not given, 6 h, 37 °C, peptide to Aβ42 1:2, added: Aβ42 2 µM | reference: untreated cells | viability | 95.2% |
| Clc1ccc(C(c2ccc(Cl)cc2)C(Cl)(Cl)Cl)cc1 | human iPSC-derived cardiomyocytes | beating frequency |  | 30 min |  | lowest active concentration | 3 µM |
| Cl.Cl.Oc1ccc2c3c1O[C@H]1c4[nH]c5c(c4C[C@@]4(O)[C@@H](C2)N(CC2CC2)CC[C@]314)C[C@@]1(O)[C@H]2Cc3ccc(O)c4c3[C@@]1(CCN2CC1CC1)[C@H]5O4 | HEK293 expressing MOR | morphine-induced cAMP overshoot, HTRF cAMP |  | 1 µM, added: NKH 477 25 nM | reference: morphine control | efficacy | 119% |
| PPAIIIA | rat hippocampal neurons, AKAP150 RNAi, AKAP79 expression | FRAP | peptide, dendritic spines | dose not given, 32 °C |  | mobile fraction CN-YFP | 77.1 ± 0.8% |
| CC[C@H](C)[C@H](NC(=O)[C@@H](NC(=O)[C@H]1CCCN1)C(C)C)C(=O)N[C@@H](C)C(N)=O | PC-12 | Aβ42-induced neurotoxicity, inhibitor, MTT |  | concentration not given, 6 h, 37 °C, peptide to Aβ42 1:2, added: Aβ42 2 µM | reference: untreated cells | viability | 83.5% |
| CC[C@H](C)[C@H](NC(=O)[C@H](CCCCN)NC(=O)[C@@H](NC(=O)[C@H](CCC(N)=O)NC(=O)[C@H](CCCNC(=N)N)NC(=O)[C@@H](N)CC(=O)O)[C@@H](C)CC)C(=O)N[C@@H](Cc1c[nH]c2ccccc12)C(=O)N[C@@H](Cc1ccccc1)C(=O)N[C@@H](CCC(N)=O)C(=O)N[C@@H](CC(N)=O)C(=O)N[C@@H](CCCNC(=N)N)C(=O)N[C@@H](CCCNC(=N)N)C(=O)N[C@@H](CCSC)C(=O)N[C@@H](CCCCN)C(=O)N[C@@H](Cc1c[nH]c2ccccc12)C(=O)N[C@@H](CCCCN)C(=O)N[C@@H](CCCCN)C(=O)N[C@H](C(=O)N[C@@H](C)C(=O)N[C@@H](CC(C)C)C(=O)N[C@@H](CC(=O)O)C(=O)N[C@@H](Cc1c[nH]c2ccccc12)C(=O)N[C@@H](CO)C(=O)N[C@@H](Cc1c[nH]c2ccccc12)C(=O)N[C@@H](CC(C)C)C(=O)N[C@@H](CCC(N)=O)C(=O)N[C@H](C(=O)N[C@@H](CCC(=O)O)C(=O)O)[C@@H](C)O)[C@@H](C)O | rheumatoid arthritis synovial fibroblasts |  |  | concentration not given, added: IL-1β |  | JNK pathway activation | no effect |
| [Met(O)35]Aβ42 | rat primary cortical neurons | MTT |  | 10 µM, 48 h | reference: medium control | viability decrease | 31 ± 1% |
| Nc1cccc2c(N)cccc12 | HepG2 | Seahorse respirometry |  | concentration not given, 1 h, dosed at MMP IC50, added: 1 µM FCCP | reference: basal | OCR | 194 ± 2.33% |
| Cc1ccc(S(=O)(=O)N[C@@H](Cc2ccccc2)C(=O)CCl)cc1 | HEK293 expressing MOR | morphine-induced cAMP overshoot, HTRF cAMP |  | 1 µM, added: NKH 477 25 nM | reference: morphine control | efficacy | 49% |
| C=C(C)[C@H]1Cc2c(ccc3c2O[C@@H]2COc4cc(OC)c(OC)cc4[C@@H]2C3=O)O1 | human iPSC-derived cardiomyocytes | calcium flux |  | 10 µM, 30 min |  | inotropic effect | negative |
| R(−)-N-allylnorapomorphine hydrobromide | HEK293 expressing MOR | morphine-induced cAMP overshoot, inhibitor |  | up to 1 µM, added: NKH477 25 nM | reference: morphine control | efficacy | 65% |
| [Met(O)35]Aβ42 | rat primary cortical neurons | TUNEL |  | 10 µM, 48 h |  | apoptotic cells | 13 ± 0.7% |
| O=C1C2CC=CCC2C(=O)N1SC(Cl)(Cl)Cl (stereo not drawn) | human iPSC-derived cardiomyocytes | beat peak frequency |  | 30 min |  | lowest effective concentration | 30 µM |
| O=C=Nc1ccc(Cl)c(Cl)c1 | HepG2 | Seahorse respirometry |  | concentration not given, 1 h, dosed at MMP IC50, added: 1 µM FCCP | reference: basal | OCR | 260 ± 2.92% |
| O=c1cc(-c2ccccc2)oc2cc(O)cc(O)c12 | J-Lat 10.6 cells | refers to: GFP-positive cells |  | 10 µM, 21 days, spontaneous, after wash-out | reference: DMSO 0.1% | inhibition of latency reversal | 87.8 ± 9.1% |
| CN(C)CCCNC(=O)/C=C/c1ccc2c(c1)OCO2 | Raji | TPA-induced EBV-EA expression, inhibitor |  | 100-fold molar ratio to TPA, 48 h, added: TPA 32 pmol/mL | reference: TPA control | EBV-EA positive cells | 84.3 ± 2.6% |
| Cc1ccc(NC(=S)NS(=O)(=O)c2cnc(N/N=C/c3ccccc3)[nH]c2=O)cc1 | RAW264.7 | qPCR, refers to: CRP |  | concentration not given, compound at quarter of IC50, added: LPS 1 µg/mL | reference: LPS control | mRNA level | 0.211 ± 0.015 fold change |
| O=P1(N(CCCl)CCCl)NCCCO1 (stereo not drawn) | U-87 MG | cell growth or viability, WST-1 |  | 500 µM, 24 h |  | viability | 56.3% |
| O=C(N[C@H]1CN2CCC1CC2)c1cc2cccc(Br)n2c1 | PC-12 |  |  | concentration not given, 7 min, added: PNU-120596 1 µM pre-incubation 10 min | reference: untreated | pERK/tERK ratio, maximal increase | 3 to 4 fold |
| N=C(N)NCCC[C@H](NC(=O)CNC(=O)[C@@H](N)Cc1ccc(O)cc1)C(=O)N[C@@H](CCCCN)C(=O)N[C@@H](CCCCN)C(=O)N[C@@H](CCCNC(=N)N)C(=O)N[C@@H](CCCNC(=N)N)C(=O)N[C@@H](CCC(N)=O)C(=O)N[C@@H](CCCNC(=N)N)C(=O)N[C@@H](CCCNC(=N)N)C(=O)N[C@@H](CCCNC(=N)N)C(=O)N[C@@H](CCCNC(=N)N)C(=O)N[C@@H](CC(N)=O)C(=O)N[C@@H](CCC(N)=O)C(=O)N[C@@H](CCCCN)C(=O)N[C@@H](Cc1ccccc1)C(=O)N[C@@H](CCCCN)C(=O)N[C@@H](CS)C(=O)NCC(=O)N[C@@H](CCC(=O)O)C(=O)O | MCF7 transfected Flag-JMJD6 His-BRD4 | immunoprecipitation |  | 10 µM, 12 h |  | BRD4-JMJD6 interaction | inhibited |
| CC(C)c1ccc2c(c1)CC[C@H]1[C@](C)(CN)CCC[C@]21C | MEL-JUSO | cell growth or viability, MTS |  | 24 h |  | IC50 | 7.05 µM |
| CC1(COc2cc(C(F)(F)F)cc(C(F)(F)F)c2)CC(=O)CC(=O)C1 | rat primary cortical neurons | cell viability |  | up to 100 µM, added: MG132 100 nM |  | neuroprotection | inactive |
| CC(C)=CCC[C@]1(C)C=Cc2c(O)c3c(c(CC=C(C)C)c2O1)O[C@]12C(=C[C@@H]4C[C@H]1C(C)(C)O[C@@]2(C/C=C(/C)C(=O)O)C4=O)C3=O | EJ | annexin V/PI flow cytometry |  | 1.0 µM, 24 h, added: 5 mM NAC pretreatment 2 h |  | apoptotic cells | 8.3 ± 0.8% |
| O=c1c(-c2ccc(O)cc2)coc2cc(O)cc(O)c12 | HepG2 | Seahorse respirometry |  | concentration not given, 1 h, dosed at MMP IC50, added: 1 µM FCCP | reference: basal | OCR | 90.29 ± 0.37% |
| O=C1C[C@@H](c2ccc(O)cc2)Oc2cc(O)cc(O)c21 | J-Lat 10.6 cells | refers to: GFP-positive cells |  | 10 µM, 21 days, spontaneous, after wash-out | reference: DMSO 0.1% | inhibition of latency reversal | ≤ 31.5% |
| O=c1cc(-c2ccc(O)cc2)oc2cc(O)cc(O)c12 | HepG2 | Seahorse respirometry |  | concentration not given, 1 h, dosed at MMP IC50, added: 1 µM FCCP | reference: basal | OCR | 144.9 ± 0.66% |
| CCC(=O)c1ccc2c(c1)N(CCCN(C)C)c1ccccc1S2 | HEK293 expressing MOR | morphine-induced cAMP overshoot, HTRF cAMP |  | 1 µM, added: NKH 477 25 nM | reference: morphine control | Emax | 41% |
